Assay results from different studies.
Every numbered part comes from another study and shows a few of its results, in no order. Changes are numbered by the printed parent chain.

Set 1
Target: CCNF, cyclin fold, Cln2 fusion (human)
Method: yeast growth competition, sequencing
Sample: yeast
Setting: strong parent motif
Relative to: not given
Direction: higher = stronger binding
Starting sequence: ANKRD17 docking peptide (human); PSVRRQLFVTVVK
Substitution | normalised enrichment score
PSVRRALFVTVVK [Q6A] | 8.73
PSVRRQLFVAVVK [T10A] | 8.87
PSVRRQLFVTVAK [V12A] | 8.95
PSVRAQLFVTVVK [R5A] | 2.94
PSVRRQLFVTAVK [V11A] | 9.36
PSVRRQLFVTVVA [K13A] | 7.64
PSVRKQLFVTVVK [R5K] | 3.58

Set 2
Target: Sal-like protein 4, full length isoform A (SALL4, Homo sapiens, UniProt Q9UJQ4, residues 1-1053)
Chain of UniProt Q9UJQ4 (whole entry, looked up): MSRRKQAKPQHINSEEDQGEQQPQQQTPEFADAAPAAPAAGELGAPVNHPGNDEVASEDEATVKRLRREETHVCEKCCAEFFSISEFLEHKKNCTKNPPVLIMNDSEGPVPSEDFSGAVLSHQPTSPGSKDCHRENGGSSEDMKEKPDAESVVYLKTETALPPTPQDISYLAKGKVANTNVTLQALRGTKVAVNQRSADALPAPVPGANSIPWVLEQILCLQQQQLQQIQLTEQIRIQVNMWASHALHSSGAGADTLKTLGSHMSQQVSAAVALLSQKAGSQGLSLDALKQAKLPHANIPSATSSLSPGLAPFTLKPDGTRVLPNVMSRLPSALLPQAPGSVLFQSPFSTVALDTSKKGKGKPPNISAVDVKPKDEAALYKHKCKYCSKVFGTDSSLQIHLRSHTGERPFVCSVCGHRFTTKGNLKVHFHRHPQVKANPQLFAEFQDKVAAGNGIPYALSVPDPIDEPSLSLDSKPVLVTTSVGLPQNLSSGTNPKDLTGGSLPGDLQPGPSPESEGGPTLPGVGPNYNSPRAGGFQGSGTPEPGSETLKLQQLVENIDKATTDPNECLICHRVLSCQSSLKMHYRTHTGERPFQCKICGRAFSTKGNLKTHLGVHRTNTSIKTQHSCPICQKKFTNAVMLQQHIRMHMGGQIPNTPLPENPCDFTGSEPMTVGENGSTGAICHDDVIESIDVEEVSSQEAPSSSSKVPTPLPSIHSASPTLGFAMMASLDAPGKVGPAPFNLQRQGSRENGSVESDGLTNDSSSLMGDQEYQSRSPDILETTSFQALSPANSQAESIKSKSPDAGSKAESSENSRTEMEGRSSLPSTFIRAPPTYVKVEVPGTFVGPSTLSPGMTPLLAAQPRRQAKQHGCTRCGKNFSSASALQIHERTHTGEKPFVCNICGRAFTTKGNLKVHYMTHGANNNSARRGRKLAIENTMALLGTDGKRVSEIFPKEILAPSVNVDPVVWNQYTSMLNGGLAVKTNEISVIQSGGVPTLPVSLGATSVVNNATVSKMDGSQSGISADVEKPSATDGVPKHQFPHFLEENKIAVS
Method: universal PBM
Molecule type: double-stranded DNA, one strand shown
Sample: in vitro
Tested at: 600 nM
Setting: 8-mer, flanks averaged, mean of replicates
Direction: higher = stronger binding
Strand | E-score
AAACTCCT | -0.109
CGTGCGAG | -0.258
AGTCACGA | -0.0411
AATGAAGG | 0.112
ACCCTCAC | -0.275
GGAAAGCA | 0.00276
ATCACCAT | 0.0956
AGTTTTAT | 0.286
ATAAAAGA | 0.258
ACAGCGTA | -0.133
CAAGGCTA | -0.00148
AACCCTCT | -0.14
GAAATACA | 0.247
GGACACAC | -0.223
GGAGCTAC | -0.195
CAGATTGC | 0.0577
ATACGGCG | -0.0773
ACAAGACC | -0.0913
ACAATGCC | -0.0944

Set 3
Target: Histone acetyltransferase KAT6A, both winged helices, GST fusion (KAT6A, Homo sapiens, UniProt Q92794, residues 1-181)
Method: protein binding microarray
Molecule type: double-stranded DNA, one strand shown
Sample: in vitro
Tested at: not given
Setting: 8-mer, flanks averaged, mean of 2 arrays, mostly near background
Relative to: not given
Direction: higher = stronger binding
Residues (chain): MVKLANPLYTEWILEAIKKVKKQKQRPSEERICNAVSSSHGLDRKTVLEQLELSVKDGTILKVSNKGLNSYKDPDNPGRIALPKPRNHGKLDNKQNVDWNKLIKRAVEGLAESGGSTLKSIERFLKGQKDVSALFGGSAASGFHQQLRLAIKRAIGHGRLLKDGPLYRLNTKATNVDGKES
Strand | E-score
AACACCGC | 0.212
AGAGAATG | -0.141
CTCAGGAA | -0.132
TAAGTCCA | -0.178
CTCCCAGC | -0.129
CTCCGACA | -0.0179
CTGTCAGC | -0.0191
TGCTCCCA | -0.224
AGGAATCG | 0.0816
TCTATCAA | -0.188
CTAATCAC | -0.0404
CGCTTTTC | 0.207
CTGATGCC | -0.0235
CTTCTTAC | -0.0234
CACGGGGC | 0.108
ATGGTTTG | -0.0667
CTAACTCA | -0.158
GACAGCCA | -0.127
ATGCCCGG | 0.251
AAGTCGAA | -0.145
AGTGTAGG | -0.209
ACACGTTC | 0.0385
GCCTTTCC | 0.146
AAATCCTA | -0.175
AATATTAT | -0.0802

Set 4
Target: Interferon regulatory factor 5, full length, phosphomimetic (IRF5, Homo sapiens, UniProt Q13568-2, residues 1-514, S451D/S453D/S456D/S462D)
Method: protein-binding microarray
Molecule type: double-stranded DNA, one strand shown
Sample: in vitro
Tested at: 940 nM top
Setting: 60-bp whole probe
Together with: salmon DNA 0.4 mg/ml
Relative to: random background probes
Direction: higher = stronger binding
Constant ends, left off below: GCCTAGCAC … GTCTTGATTCGCTTGACGCTGCTG
Strand | fitted relative affinity
GCTAGTTCAGTTCTCTAGAAGTGCTAG | -0.124 z-score
TTCTCTTTTATTTTTTTTATGTGCTAG | 2.67 z-score
AACGGACTGGGTCTCGGGACGTGCTAG | -0.195 z-score
GACGGTTTCCTACTGATGACGTGCTAG | 0.622 z-score
GACGGTATGGGGTTTCGGGACGTGCTA | 2.15 z-score
GCTCCTCTTTTTTTGGTAATGTGCTAG | 1.13 z-score
TCATGTCTCTGGCCTGGGACTGTGCTA | 0.0136 z-score
GACGATTTCAGTTCCGAGATGTGCTAG | 0.613 z-score
CGTATCTTCATTGTCATGTAGTGCTAG | 0.981 z-score
TTAGGTCTCCTACCGCTTTAGTGCTAG | -0.172 z-score
ATCATTTTTGCTTACGATGCGTGCTAG | 0.245 z-score
GACGGTATCGACCCTGGGGACGTGCTA | 2.96 z-score
TCACATACTAATTTCCAACTGTGCTAG | 0.794 z-score
TCACTCCTCTTTTTTTGACTGTGCTAG | 1.32 z-score
TTAGGTTTCGGGTATCCGTTAGTGCTA | 10.8 z-score
GACGAACTGAGTTTCGACACGTGCTAG | 4.17 z-score
TTACGACTGGGTTTCGGTTAGTGCTAG | 7.65 z-score
TTAGGTCTCCTTATTCTTTAGTGCTAG | 0.755 z-score
GAAGTTCTAAATATCTTTGTGTGCTAG | -0.0649 z-score

Set 5
Target: Centromere-binding protein 1, full length, His-tagged (CBF1, Saccharomyces cerevisiae, UniProt P17106, residues 1-351)
Chain of UniProt P17106 (whole entry, looked up): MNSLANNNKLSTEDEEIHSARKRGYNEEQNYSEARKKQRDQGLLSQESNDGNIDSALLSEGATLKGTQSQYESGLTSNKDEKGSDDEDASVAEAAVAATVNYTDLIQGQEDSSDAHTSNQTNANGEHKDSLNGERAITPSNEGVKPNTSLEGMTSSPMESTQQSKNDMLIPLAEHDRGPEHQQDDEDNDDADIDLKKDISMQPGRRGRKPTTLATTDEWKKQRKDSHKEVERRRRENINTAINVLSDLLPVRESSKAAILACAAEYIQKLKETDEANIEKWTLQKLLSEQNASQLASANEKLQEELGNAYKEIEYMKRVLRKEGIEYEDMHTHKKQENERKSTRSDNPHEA
Method: competition protein-binding microarray
Molecule type: double-stranded DNA, one strand shown
Sample: in vitro
Tested at: 2 µM
Setting: whole 60-bp probe, lowest competitor level
Together with: Pho4 competitor, 0.05 µM
Direction: higher = stronger binding
Constant ends, left off below: … GTCTTGATTCGCTTGACGCTGCTG
Strand | fluorescence intensity
CGTCCTAGTGATTGTCACGAAACTTCCATGAGGAAG | 94 a.u.
AAAGCGGTAATTTGTTAGGTGGGTGCAGATATCTAT | 87.6 a.u.
AATGTACAATTTTACCAGGCGTGGAACCTGGACCGG | 51.8 a.u.
TGCGCAACAACTTTTCACGTGCGTTTATGTCTAGAA | 1080 a.u.
AAAAGCGTCAAAAAACTCGTGTAAGAGGTCAAAAAG | 99.6 a.u.
GAGGCAAAATAAGATCGTGTGTTTCAAATTGCCTTA | 87.1 a.u.
CGAAGCACTCTCCAACACGTGACTCGGATAACGACC | 7530 a.u.
CTTTCCCGATCTTGCTTCGTGGGTGTAGCACATTTG | 76.4 a.u.
AAAGCGGTAATTTGATGCGTGGGTGCAGATATCTAT | 75.6 a.u.
TGCGCAACAACTTGTCACGGAACTTTATGTCTAGAA | 97.6 a.u.
CGTTCGTAATGCCAACACGATGCAGACCTGAGCCTA | 59.2 a.u.
CTAACGAAGGTTTGGGGGGTGGGTGACAAGCCAAGT | 112 a.u.
CTTTCCCGATCTTTTCACGTGACTTTAGCACATTTG | 7580 a.u.
CTAACGAAGGTTTGGCAGGTGGGTGACAAGCCAAGT | 71 a.u.
TTACCGACGAGGCTTACCGTGATTGCTCTCCAGTAG | 66.1 a.u.
CTTCTGTAAATTTGCCATGTGGGTGGACGCGCCCCG | 114 a.u.

Some of these lines once more (set 5):
Strand | fluorescence intensity
AATGTACAATTTTACCAGGCGTGGAACCTGGACCGG | 51.8 a.u.
TGCGCAACAACTTTTCACGTGCGTTTATGTCTAGAA | 1080 a.u.
AAAAGCGTCAAAAAACTCGTGTAAGAGGTCAAAAAG | 99.6 a.u.
GAGGCAAAATAAGATCGTGTGTTTCAAATTGCCTTA | 87.1 a.u.
CGAAGCACTCTCCAACACGTGACTCGGATAACGACC | 7530 a.u.
CTTTCCCGATCTTGCTTCGTGGGTGTAGCACATTTG | 76.4 a.u.
AAAGCGGTAATTTGATGCGTGGGTGCAGATATCTAT | 75.6 a.u.
TGCGCAACAACTTGTCACGGAACTTTATGTCTAGAA | 97.6 a.u.
CGTTCGTAATGCCAACACGATGCAGACCTGAGCCTA | 59.2 a.u.
CTAACGAAGGTTTGGGGGGTGGGTGACAAGCCAAGT | 112 a.u.
CTTTCCCGATCTTTTCACGTGACTTTAGCACATTTG | 7580 a.u.
CTAACGAAGGTTTGGCAGGTGGGTGACAAGCCAAGT | 71 a.u.
TTACCGACGAGGCTTACCGTGATTGCTCTCCAGTAG | 66.1 a.u.
CTTCTGTAAATTTGCCATGTGGGTGGACGCGCCCCG | 114 a.u.
